Assay results collected from several papers.
Protocols differ between the studies behind these lines. “And” joins repeats or separate records; there may be more than shown. ± marks the error that the study gave.

Cn1nc(NS(C)(=O)=O)c2c(Cl)ccc(-n3c([C@H](Cc4cc(F)cc(F)c4)NC(=O)Cn4nc(C(F)F)c5c4C(F)(F)[C@@H]4C[C@H]54)nc4nc(OCCC(F)(F)F)ccc4c3=O)c21  half-life (human, plasma; oral, 200 mg single dose, powder in bottle, geometric mean): 61.6 h
O=C(c1cc(Cc2n[nH]c(=O)c3ccccc23)ccc1F)N1CC(CNC2CC2)C1  logP: 1.5
O=C1NC2(CC2)COc2ncc(F)cc2[C@H]2COCCN2c2ccn3ncc1c3n2  albumin (Sprague-Dawley rat, female, serum; oral, 2.5 mg/kg/day, 4 weeks daily, end of treatment): 37.8 ± 2.7 g/L
CSCC[C@H](N)C(=O)N[C@@H](C)C(=O)N[C@@H](CCCNC(=N)N)C(=O)N[C@@H](CCCNC(=N)N)C(=O)N[C@@H](CC(=O)O)C(=O)N[C@@H](CCCCN)C(=O)N[C@H](C(=O)N[C@@H](CC(=O)O)C(=O)N[C@@H](Cc1ccccc1)C(=O)N[C@@H](C)C(=O)N[C@@H](CCCNC(=N)N)C(=O)N[C@@H](CCCNC(=N)N)C(=O)N[C@@H](CCCNC(=N)N)C(=O)N[C@@H](CCCNC(=N)N)C(=O)NCCCCCC(=O)NCCCCC(NC(=O)CCCCCNC(=O)[C@H](CCCNC(=N)N)NC(=O)[C@H](CCCNC(=N)N)NC(=O)[C@H](CCCNC(=N)N)NC(=O)[C@H](CCCNC(=N)N)NC(=O)[C@H](C)NC(=O)[C@H](Cc1ccccc1)NC(=O)[C@H](CC(=O)O)NC(=O)[C@@H](NC(=O)[C@H](CCCCN)NC(=O)[C@H](CC(=O)O)NC(=O)[C@H](CCCNC(=N)N)NC(=O)[C@H](CCCNC(=N)N)NC(=O)[C@H](C)NC(=O)[C@@H](N)CCSC)[C@@H](C)O)C(=O)NCCCCC(NC(=O)C(CCCCNC(=O)CCCCCNC(=O)[C@H](CCCNC(=N)N)NC(=O)[C@H](CCCNC(=N)N)NC(=O)[C@H](CCCNC(=N)N)NC(=O)[C@H](CCCNC(=N)N)NC(=O)[C@H](C)NC(=O)[C@H](Cc1ccccc1)NC(=O)[C@H](CC(=O)O)NC(=O)[C@@H](NC(=O)[C@H](CCCCN)NC(=O)[C@H](CC(=O)O)NC(=O)[C@H](CCCNC(=N)N)NC(=O)[C@H](CCCNC(=N)N)NC(=O)[C@H](C)NC(=O)[C@@H](N)CCSC)[C@@H](C)O)NC(=O)CCCCCNC(=O)[C@H](CCCNC(=N)N)NC(=O)[C@H](CCCNC(=N)N)NC(=O)[C@H](CCCNC(=N)N)NC(=O)[C@H](CCCNC(=N)N)NC(=O)[C@H](C)NC(=O)[C@H](Cc1ccccc1)NC(=O)[C@H](CC(=O)O)NC(=O)[C@@H](NC(=O)[C@H](CCCCN)NC(=O)[C@H](CC(=O)O)NC(=O)[C@H](CCCNC(=N)N)NC(=O)[C@H](CCCNC(=N)N)NC(=O)[C@H](C)NC(=O)[C@@H](N)CCSC)[C@@H](C)O)C(N)=O)[C@@H](C)O (stereo partly drawn)  tissue distribution (C57BL/6 mouse female, femur; dose not given, 6 h; relative to: total): 1.55% and 1.19% and 0.71%
CC[C@H](C)[C@H](NC(=O)[C@H](Cc1ccccc1)NC(=O)[C@H](CCCCN)NC(=O)[C@H](CCCCN)NC(=O)CNC(=O)[C@H](C)NC(=O)[C@H](CC(N)=O)NC(=O)[C@H](CCCCN)NC(=O)[C@H](Cc1ccccc1)NC(=O)[C@H](CC(N)=O)NC(=O)[C@H](CCC(=O)O)NC(=O)[C@H](Cc1c[nH]c2ccccc12)NC(=O)[C@H](CC(C)C)NC(=O)[C@@H](N)CO)C(=O)N[C@@H](CC(C)C)C(=O)N[C@@H](CC(N)=O)C(=O)N[C@H](C(=O)N[C@@H](CC(C)C)C(=O)N[C@@H](CC(=O)O)C(=O)N[C@@H](CCCCN)C(N)=O)[C@@H](C)CC  HC50 (horse erythrocytes; 2 h, 37 °C; relative to: Triton X-100): > 128 µM
C=Cc1c(C)c2cc3nc(c(CC(=O)[O-])c4[n-]c(cc5nc(cc1[n-]2)C(C)=C5CC)c(C)c4C(=O)[O-])C(CCC(=O)[O-])C3C.[Cu+2].[Na+].[Na+].[Na+] (stereo not drawn)  serum cholesterol (Wistar rat, male; oral, 1000 mg/kg daily, 28 days): 38.8 ± 10.1 mg/dL
CC[C@H](C)[C@H](NC(=O)[C@H](C)NC(=O)[C@H](C)NC(=O)[C@H](CCC(N)=O)NC(=O)CNC(=O)[C@H](CC(C)C)NC(=O)[C@H](Cc1c[nH]cn1)NC(=O)[C@H](CCCCN)NC(=O)[C@H](C)NC(=O)CNC(=O)[C@H](CCCCN)NC(=O)[C@H](CCCNC(=N)N)NC(=O)[C@H](CC(C)C)NC(=O)[C@H](Cc1c[nH]c2ccccc12)NC(=O)[C@H](CCCCN)NC(=O)[C@H](CCCCN)NC(=O)[C@H](Cc1c[nH]c2ccccc12)NC(=O)CN)C(=O)N[C@@H](CCCCN)C(N)=O  chronic toxic concentration (zebrafish embryos 4 hpf, E3 medium; 24 h): 5 µM
CC[C@H](C)[C@H](NC(=O)[C@H](CCCCN)NC(=O)CNC(=O)[C@H](CC(C)C)NC(=O)[C@H](Cc1ccccc1)NC(=O)[C@H](CCCCN)NC(=O)[C@H](CO)NC(=O)[C@H](Cc1ccccc1)NC(=O)[C@H](Cc1c[nH]c2ccccc12)NC(=O)[C@H](CCC(N)=O)NC(=O)[C@@H](NC(=O)[C@H](Cc1ccccc1)NC(=O)CCCCCNC(=O)CN1CCN(CC(=O)O)CCN(CC(=O)O)CCN(CC(=O)O)CC1)C(C)C)C(=O)N[C@@H](CCC(=O)O)C(=O)N1CCC[C@H]1C(=O)N[C@@H](CC(=O)O)C(=O)N[C@H](C(=O)N[C@@H](CO)C(=O)N[C@@H](CCC(N)=O)C(=O)N[C@H](C(=O)N[C@@H](CCC(N)=O)C(=O)N[C@@H](CC(=O)O)C(=O)N1CCC[C@H]1C(=O)N[C@@H](CC(N)=O)C(=O)N[C@@H](CC(=O)O)C(=O)N[C@@H](CCC(N)=O)C(=O)N[C@@H](Cc1ccc(O)cc1)C(=O)N[C@@H](CCC(=O)O)C(=O)N1CCC[C@H]1C(=O)N[C@@H](Cc1ccccc1)C(=O)O)C(C)C)C(C)C [copper-64 labelled]  tissue uptake (C57BL/6 male mouse, tumour-naive, bone; 2 h): 1.21 ± 0.01 %ID/g
COc1ccc(CNc2ccc3c(c2)S(=O)(=O)C=C3)cc1  spleen weight (male C57BL/6 mice; i.p., 5 mg/kg, day 8, repeated dosing): 0.123 g
CC(C)=CCC/C(C)=C\CCn1cc(CC(C)(P(=O)(O)O)P(=O)(O)O)nn1  biliary excretion (mouse CD-1; intravenous, 0.3 mg/kg, 2 h; relative to: dose): 0.75%
CC(C)[C@@H]1NC(=O)CNC(=O)[C@H](CC(N)=O)NC(=O)[C@H](CCCNC(=N)N)NC(=O)[C@H](Cc2ccc(O)cc2)NC(=O)[C@H](C(C)C)NC(=O)[C@@H](NC(=O)[C@@H](NC(=O)[C@H](CC(N)=O)NC(=O)[C@H](Cc2c[nH]c3ccccc23)NC(=O)[C@H](C)NC(=O)[C@H](Cc2ccccc2)NC(=O)CNC(=O)[C@H](CCCCN)NC(=O)[C@H](Cc2ccccc2)NC(=O)[C@H](Cc2ccccc2)NC(=O)[C@H](CCCCN)NC(=O)OCC2c3ccccc3-c3ccccc32)C(C)C)CSSC[C@@H](C(=O)N[C@@H](Cc2c[nH]cn2)C(=O)N[C@@H](CCCNC(=N)N)C(=O)N[C@@H](CCCNC(=N)N)C(=O)N[C@@H](C)C(=O)N[C@@H](CC(N)=O)C(N)=O)NC(=O)[C@H](C(C)C)NC(=O)[C@H](CCCNC(=N)N)NC1=O  neutrophils (ICR mice, blood; intraperitoneal, 10 mg/kg, day 5): 19.5 ± 1.67%
CC(=O)N1c2ccc(-c3ccc(CNC(=O)c4cn5cc(-c6cnc(N)nc6)nc(N6CCOCC6)c5n4)cc3)cc2CC[C@@H]1C  maximum tolerated dose (Eµ-Myc lymphoma cells, mouse, Eµ-Myc lymphoma transplant; intraperitoneal, 3 wk): 45 mg/kg

Excerpt of the above:
O=C(c1cc(Cc2n[nH]c(=O)c3ccccc23)ccc1F)N1CC(CNC2CC2)C1  logP: 1.5
